Published values gathered from unrelated publications.
A part holds a random share of what one study measured. Changes are numbered by the printed parent chain.
UniProt P62344, sequence (whole entry, looked up): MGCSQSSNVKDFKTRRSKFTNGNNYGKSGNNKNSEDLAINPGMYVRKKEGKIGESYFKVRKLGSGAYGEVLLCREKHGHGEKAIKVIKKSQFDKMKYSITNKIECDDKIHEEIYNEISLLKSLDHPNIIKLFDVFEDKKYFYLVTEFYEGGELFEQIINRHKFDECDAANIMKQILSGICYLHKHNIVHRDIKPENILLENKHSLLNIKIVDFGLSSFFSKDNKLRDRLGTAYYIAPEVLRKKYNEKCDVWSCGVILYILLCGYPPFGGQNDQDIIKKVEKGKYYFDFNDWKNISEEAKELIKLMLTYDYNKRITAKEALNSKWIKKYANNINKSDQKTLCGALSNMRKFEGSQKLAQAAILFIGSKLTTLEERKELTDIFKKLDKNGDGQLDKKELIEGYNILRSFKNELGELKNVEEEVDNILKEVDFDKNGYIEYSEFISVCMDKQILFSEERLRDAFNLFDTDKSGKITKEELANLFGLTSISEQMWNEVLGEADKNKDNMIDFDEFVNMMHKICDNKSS

Series 1
Target: RING finger protein unkempt homolog, zinc fingers 1-6, GST-SBP tag (UNK, Homo sapiens, UniProt Q9C0B0, residues 30-357)
UniProt Q9C0B0, sequence (30-357, looked up): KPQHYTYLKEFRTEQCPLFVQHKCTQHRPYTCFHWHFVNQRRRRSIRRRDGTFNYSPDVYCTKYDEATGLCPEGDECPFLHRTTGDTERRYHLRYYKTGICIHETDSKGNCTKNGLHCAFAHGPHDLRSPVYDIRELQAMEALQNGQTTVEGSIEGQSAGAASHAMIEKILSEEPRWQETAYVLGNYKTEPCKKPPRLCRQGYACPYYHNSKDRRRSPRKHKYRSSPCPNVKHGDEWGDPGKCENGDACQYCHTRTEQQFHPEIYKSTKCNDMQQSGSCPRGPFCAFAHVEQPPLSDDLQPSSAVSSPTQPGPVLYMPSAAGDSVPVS
Method: RNA Bind-n-Seq
Molecule type: RNA
Sample: in vitro
Tested at: not given
Setting: RNA with constant flanks, human and mouse sites, ends assumed
Baseline: input RNA pool
Reading: higher = stronger binding
Constant ends, left off below: GGGAGUUCUACAGUCCGACGAUC … CAACAGAGGAUUGAGCAUCA
| Oligonucleotide | bound/input enrichment [ratio] |
| --- | --- |
| AUUUCCCCAAAAGUUACGAGUUUAUUGGUGGUCCCUGGGAGCUCAGAUGUAAAAGACAAAGUUAGCUCGGAUCUCCCACAGAUAGGGCCACCCUUGACCUCUACACCCCAACUACAGGCU | 0.148 |
| GAUAAUAAAAUGGGCAUAACCCCGCUUAGAAAUUAUCACCCCAUUGUAGUUCCCGGACUGGGGCGUUCUCUAGGAUUUCUGCCCAAAAUGCCUCGCCUGCGGGUGGUCCACAUGUUUCUG | 0.737 |
| AAAAGUUUCCUGAAGUCUGAAUUCAGUGAGGAAAACCUUGAGUUCUGGGUUGCCUGUGAGAAUUACAAGAAGAUCAAGUCCCCCAUCAAAAUGGCGGAGAAGGCAAAGCAAAUUUAUGAA | 0.304 |
| UGCGUCCUUUUUCGUUUUUCGGACGAUGCCUUCAAUACCACCUUUAUUUCCACCAUAGGAAUAGACUUUAAGAUCAAAACAGUGGAACUACAAGGAAAGAAGAUCAAGCUACAGAUAUGG | 0.567 |
| AUGAAGCUUUUAAAAUCUACAAUUUCUUCUUUAAAAAUAUUUAUUAAUGUGAAUGGAAUAUAACAAUUCAGCUUAAUUCCCCAACCUUAUUCUGUGUGUAGACAUUGUAUUCCACAAUUU | 1.78 |
| GUUUUUAAUGUUGAAGUUGUUGCUGUUUCGUCUAUCCAUACACAAGAUCCUUAUCUUGACAAAUUUUUUGCUCUGGUCAAUGCUCUGGAUGAACACCUGUUCCCAGUCCGAAUUGGGGAC | 0.287 |
| AGUAACACAGCAUCUGGUGGAAUGACACGACGAAAUACUUAUGUUUGCAGUGAGAGAACUACAGCUGAUAGACACUCAGUGAUUCAGAAUGGCAAAGAAAACAGCACUAUUCCUGAUCAG | 0.115 |
| AAGGUGCUUGAGCCAUACCCAUCUAAAUUAAGUGGCCUGAAAGGUAAAAAUAUUUUCUUGGUGGCUGCUACUCUCAGACCUGAGACCAUGUUUGGGCAGACAAAUUGUUGGGUUCGUCCU | 0.269 |

Series 2
Target: CCNB2, cyclin fold, Cln2 fusion (human)
Method: yeast growth competition, sequencing
Sample: yeast
Setting: weak parent motif
Baseline: not given
Reading: higher = stronger binding
Parent: viral docking peptide; KGVKRKLFAEDSS; partner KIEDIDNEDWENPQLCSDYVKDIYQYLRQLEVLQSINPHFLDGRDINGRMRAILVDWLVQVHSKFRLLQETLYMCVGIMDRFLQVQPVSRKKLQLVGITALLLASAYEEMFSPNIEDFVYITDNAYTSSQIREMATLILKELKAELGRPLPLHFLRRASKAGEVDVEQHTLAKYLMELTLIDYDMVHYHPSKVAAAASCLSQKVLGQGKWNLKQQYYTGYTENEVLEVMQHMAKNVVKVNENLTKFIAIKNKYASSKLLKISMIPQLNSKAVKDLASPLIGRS
| Variant | normalised enrichment score |
| --- | --- |
| D11F | 1.58 |
| D11T | 0.548 |
| K4H | 0.612 |
| K4T | 0.236 |
| S12Q | -0.0118 |
| L7R | 0.75 |
| K6I | 0.548 |
| G2M | 0.497 |
| S13A | 0.972 |
| F8M | 0.103 |
| L7M | 0.478 |
| V3C | 0.457 |
| R5K F8L | 0.828 |
| A9W | 0.332 |
| K6H | 0.696 |
| L7E | 0.639 |

Series 3
Target: NFE2L3, bZIP domain (human)
Method: DHFR protein complementation
Sample: yeast
Setting: single substitutions, most at no-binding floor
Baseline: wild-type JUN-FOS pair
Reading: higher = stronger binding
Parent: JUN, bZIP domain (human); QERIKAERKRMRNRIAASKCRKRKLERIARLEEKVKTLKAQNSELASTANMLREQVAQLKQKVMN; partner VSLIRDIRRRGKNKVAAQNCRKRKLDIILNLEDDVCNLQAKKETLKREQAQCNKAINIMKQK
| Variant | binding fitness |
| --- | --- |
| R30G | -1.35 natural log |
| N42H | -1.5 natural log |
| K39M | -1.39 natural log |
| A40R | -1.34 natural log |
| A49H | -1.58 natural log |
| L45H | -1.52 natural log |
| L45T | -1.51 natural log |
| A29F | -1.29 natural log |

Series 4
Target: HLA class I histocompatibility antigen, C alpha chain, allele C*04:01 (Homo sapiens, UniProt P10321)
Effect on: peptide-MHC binding
Molecule type: peptide
Tested at: concentration not given
| Molecule | binding |
| --- | --- |
| SVMAIFYLR | inactive |
| MVIFFMSPK | inactive |
| YTPEQWWPF | inactive |
| SRWAISHWL | inactive |

Single results of other studies
| SMILES | target | effect on | method | tested at | endpoint | value |
| --- | --- | --- | --- | --- | --- | --- |
| O=C(O)[C@@H]1[C@@H](Cn2nnc3ccccc3c2=O)CC[C@H]1C(=O)c1ccc(OCCC2CCOCC2)cc1 | Calcium-dependent protein kinase 1 (CDPK1, Plasmodium falciparum, UniProt P62344) | cell-free assay | competition with immobilised ligand | 1 µM | remaining binding | 100% |
